Results of several laboratories.
Compare with care: the assays were run in different laboratories.
rep nsp14: Replicase polyprotein 1ab, nsp14 (rep, Severe acute respiratory syndrome coronavirus 2, UniProt P0DTD1)
gag-pol reverse transcriptase: Gag-Pol polyprotein, reverse transcriptase (gag-pol, Human immunodeficiency virus 1, UniProt P03366)
SLC22A11: Solute carrier family 22 member 11 (SLC22A11, Homo sapiens, UniProt Q9NSA0)
Sequence of UniProt Q9NSA0 (whole entry, looked up): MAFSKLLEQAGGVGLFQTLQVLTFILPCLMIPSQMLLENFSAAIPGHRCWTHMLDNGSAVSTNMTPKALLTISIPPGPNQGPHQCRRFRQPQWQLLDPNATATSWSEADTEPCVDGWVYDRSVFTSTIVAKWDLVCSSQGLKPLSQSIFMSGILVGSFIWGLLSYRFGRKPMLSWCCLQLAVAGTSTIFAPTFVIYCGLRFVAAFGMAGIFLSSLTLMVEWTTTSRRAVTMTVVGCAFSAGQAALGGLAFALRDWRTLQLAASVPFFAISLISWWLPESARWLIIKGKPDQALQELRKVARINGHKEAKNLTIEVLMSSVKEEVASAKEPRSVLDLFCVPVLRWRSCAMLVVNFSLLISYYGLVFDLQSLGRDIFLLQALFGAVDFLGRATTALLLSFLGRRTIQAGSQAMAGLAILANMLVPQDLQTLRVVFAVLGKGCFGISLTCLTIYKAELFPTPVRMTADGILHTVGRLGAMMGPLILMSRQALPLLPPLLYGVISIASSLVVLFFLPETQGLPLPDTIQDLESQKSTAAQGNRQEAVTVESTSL
Sequence of UniProt Q8NER1 (whole entry, looked up): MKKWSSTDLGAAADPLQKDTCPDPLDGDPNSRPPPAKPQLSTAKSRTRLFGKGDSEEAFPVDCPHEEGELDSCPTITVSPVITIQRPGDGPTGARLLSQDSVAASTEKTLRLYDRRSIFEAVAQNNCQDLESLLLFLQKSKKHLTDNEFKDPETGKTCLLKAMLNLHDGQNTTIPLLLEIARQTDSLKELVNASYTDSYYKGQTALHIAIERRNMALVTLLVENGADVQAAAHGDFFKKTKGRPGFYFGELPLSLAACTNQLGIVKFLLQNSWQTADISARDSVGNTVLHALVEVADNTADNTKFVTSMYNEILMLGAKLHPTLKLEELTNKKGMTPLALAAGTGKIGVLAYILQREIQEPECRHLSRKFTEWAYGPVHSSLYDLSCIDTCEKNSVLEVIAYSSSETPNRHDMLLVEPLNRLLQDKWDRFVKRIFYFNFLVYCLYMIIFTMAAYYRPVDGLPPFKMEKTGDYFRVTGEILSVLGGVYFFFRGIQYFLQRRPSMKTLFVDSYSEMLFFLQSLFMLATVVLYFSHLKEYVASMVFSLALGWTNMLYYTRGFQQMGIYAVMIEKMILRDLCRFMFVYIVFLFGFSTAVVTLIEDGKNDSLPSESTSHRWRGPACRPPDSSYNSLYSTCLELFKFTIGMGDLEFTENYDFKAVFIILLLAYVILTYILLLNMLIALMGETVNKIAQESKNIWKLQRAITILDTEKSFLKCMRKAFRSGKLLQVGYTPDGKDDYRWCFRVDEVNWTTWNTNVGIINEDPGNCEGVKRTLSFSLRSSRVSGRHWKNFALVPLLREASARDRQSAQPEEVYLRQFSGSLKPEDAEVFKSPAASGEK
Sequence of UniProt P11388 (whole entry, looked up): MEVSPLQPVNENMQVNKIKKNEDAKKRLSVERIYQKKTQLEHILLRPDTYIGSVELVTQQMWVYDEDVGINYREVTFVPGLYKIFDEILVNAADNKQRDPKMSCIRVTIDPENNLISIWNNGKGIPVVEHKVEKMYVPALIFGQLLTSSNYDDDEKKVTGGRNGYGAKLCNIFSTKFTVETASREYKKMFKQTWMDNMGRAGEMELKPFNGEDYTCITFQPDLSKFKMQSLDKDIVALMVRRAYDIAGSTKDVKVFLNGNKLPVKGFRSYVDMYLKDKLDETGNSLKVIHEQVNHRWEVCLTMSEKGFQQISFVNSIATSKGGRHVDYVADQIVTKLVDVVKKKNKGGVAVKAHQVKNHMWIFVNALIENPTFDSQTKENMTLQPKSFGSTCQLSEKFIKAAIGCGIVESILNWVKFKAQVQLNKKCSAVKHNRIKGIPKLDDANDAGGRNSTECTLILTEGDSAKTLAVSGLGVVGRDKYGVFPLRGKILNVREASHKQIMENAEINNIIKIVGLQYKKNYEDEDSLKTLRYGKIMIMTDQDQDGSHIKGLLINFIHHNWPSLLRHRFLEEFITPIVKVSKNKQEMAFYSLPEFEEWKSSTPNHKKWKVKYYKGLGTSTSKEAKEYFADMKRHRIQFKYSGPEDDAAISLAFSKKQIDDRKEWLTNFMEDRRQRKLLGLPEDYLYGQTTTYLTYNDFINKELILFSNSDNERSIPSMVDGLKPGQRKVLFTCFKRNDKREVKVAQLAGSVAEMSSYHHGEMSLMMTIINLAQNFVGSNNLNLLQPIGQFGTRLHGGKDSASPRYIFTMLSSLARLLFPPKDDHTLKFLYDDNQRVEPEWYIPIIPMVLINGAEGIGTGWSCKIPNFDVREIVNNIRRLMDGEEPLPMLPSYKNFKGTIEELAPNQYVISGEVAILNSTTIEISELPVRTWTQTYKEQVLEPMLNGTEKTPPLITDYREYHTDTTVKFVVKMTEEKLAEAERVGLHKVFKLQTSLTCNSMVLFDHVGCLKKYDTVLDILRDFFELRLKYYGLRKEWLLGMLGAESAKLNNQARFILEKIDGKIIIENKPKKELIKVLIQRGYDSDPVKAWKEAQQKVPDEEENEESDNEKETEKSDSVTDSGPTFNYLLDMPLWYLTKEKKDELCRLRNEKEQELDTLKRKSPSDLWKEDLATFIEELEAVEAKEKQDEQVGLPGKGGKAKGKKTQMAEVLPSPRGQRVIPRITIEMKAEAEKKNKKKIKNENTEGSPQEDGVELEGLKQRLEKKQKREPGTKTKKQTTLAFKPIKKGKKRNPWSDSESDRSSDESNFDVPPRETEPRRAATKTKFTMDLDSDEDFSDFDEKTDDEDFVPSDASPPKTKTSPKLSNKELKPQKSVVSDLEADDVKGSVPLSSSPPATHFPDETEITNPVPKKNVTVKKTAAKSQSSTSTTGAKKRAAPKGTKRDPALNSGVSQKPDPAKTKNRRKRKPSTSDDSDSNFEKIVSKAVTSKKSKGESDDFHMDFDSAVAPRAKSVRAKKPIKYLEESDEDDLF
Sequence of UniProt P14902 (whole entry, looked up): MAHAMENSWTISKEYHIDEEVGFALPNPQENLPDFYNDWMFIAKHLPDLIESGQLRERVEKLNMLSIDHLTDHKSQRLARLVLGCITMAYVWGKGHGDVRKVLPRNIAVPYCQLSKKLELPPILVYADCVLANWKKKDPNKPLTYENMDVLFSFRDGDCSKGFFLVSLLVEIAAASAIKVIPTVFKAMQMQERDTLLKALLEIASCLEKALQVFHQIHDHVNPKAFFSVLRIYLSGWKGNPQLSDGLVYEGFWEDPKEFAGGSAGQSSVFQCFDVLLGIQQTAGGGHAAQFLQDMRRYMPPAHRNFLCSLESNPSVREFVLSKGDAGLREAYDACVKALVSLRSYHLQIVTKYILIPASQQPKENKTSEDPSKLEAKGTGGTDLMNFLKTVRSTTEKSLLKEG

The IC50 of `CCn1c(C(=O)NCc2ccccc2OC)cc(S(=O)(=O)N2CCC(C)CC2)c1C` is reported as 0.076 µM (rep nsp14; inhibitor).
For `Cc1cc(C)cc(S(=O)(=O)c2c(C(=O)NCCCCNS(=O)(=O)c3cccnc3)[nH]c3ccc(Cl)cc23)c1`, the IC50 was 0.077 µM (gag-pol reverse transcriptase; enzyme activity, inhibitor, ELISA).
`Cc1cnc(NC(=O)C2=C(O)c3ccccc3S(=O)(=O)N2C)s1` gave an IC50 of 108 µM (SLC22A11; transporter uptake, inhibitor, radiometric).
For `Cc1c(S(=O)(=O)N2CCC(C)CC2)cc(C(=O)NCc2cccc3c2OCO3)n1C`, the IC50 was 0.084 µM (rep nsp14; inhibitor).
Under “Cmax at steady state”, `COC(=O)Nc1c(N)nc(-c2nn(Cc3ccccc3F)c3ncc(F)cc23)nc1N` is recorded as 348 ng/mL (humans, plasma; 10 mg once daily, phase I DDI study, without warfarin).
With `C=C(C)[C@]12C[C@@H](C)[C@@]34O[C@](Cc5ccccc5)(O[C@@H]1[C@@H]3C=C(COC(=O)Cc1ccc(O)c(OC)c1)C[C@]1(O)C(=O)C(C)=C[C@@H]41)O2` the EC50 was 0.00501 µM (Transient receptor potential cation channel subfamily V member 1 (TRPV1, Homo sapiens, UniProt Q8NER1); Ca2+ influx, agonist, BRET; HEK-293T).
The Kd of `N[C@@H](Cc1c[nH]c2ccccc12)C(=O)O` is reported as 26000 µM (Indoleamine 2,3-dioxygenase 1 (IDO1, Homo sapiens, UniProt P14902); binding, optical absorption titration; second site, cyanide-bound ferric).
`COc1cc([C@@H]2c3cc4c(cc3[C@@H](O[C@@H]3O[C@@H]5CO[C@@H](C)O[C@H]5[C@H](O)[C@H]3O)[C@H]3COC(=O)[C@H]23)OCO4)cc(OC)c1O`: “mean linear DNA” 8.76% (DNA topoisomerase 2-alpha (TOP2A, Homo sapiens, UniProt P11388); DNA cleavage; 7.8 µM).
`Fc1ccccc1Cc1nc(-c2nc(C(F)(F)F)n[nH]2)cn2ccnc12` — result for “subjects with nervous system TEAEs”: 14.3% (healthy human subjects, both sexes; oral, 10 mg, fasted).
With `CCCc1nc2c(C)cc(-c3nc4ccccc4n3C)cc2n1Cc1ccc(-c2ccccc2C(=O)O)cc1` the IC50 was 43.6 µM (SLC22A11; transporter uptake, inhibitor, radiometric).
`COc1ccccc1CNC(=O)c1cc(S(=O)(=O)N2CCc3ccccc3C2)c(C)s1` has an IC50 of 0.019 µM (rep nsp14; inhibitor).
`Cc1cc(C)cc(S(=O)(=O)c2c(C(=O)NCCNS(=O)(=O)C3CC3)[nH]c3ccc(Cl)cc23)c1` gave an IC50 of 0.057 µM (gag-pol reverse transcriptase; enzyme activity, inhibitor, ELISA).
For `CO/N=C(\C(=O)N[C@@H]1C(=O)N2C(C(=O)O)=C(COC(C)=O)CS[C@H]12)c1csc(N)n1`, the MIC was greater than 16 µg/mL (Salmonella enterica serovar Choleraesuis; broth microdilution; clinical isolate RKI-No 532/14-1).

Repeated from above:
`Cc1cc(C)cc(S(=O)(=O)c2c(C(=O)NCCNS(=O)(=O)C3CC3)[nH]c3ccc(Cl)cc23)c1` gave an IC50 of 0.057 µM (gag-pol reverse transcriptase; enzyme activity, inhibitor, ELISA).
The Kd of `N[C@@H](Cc1c[nH]c2ccccc12)C(=O)O` is reported as 26000 µM (Indoleamine 2,3-dioxygenase 1 (IDO1, Homo sapiens, UniProt P14902); binding, optical absorption titration; second site, cyanide-bound ferric).
